Assay results pooled from the literature.
A part holds a random share of what one study measured.

Set 1
Target: Sox, HMG box (Pigoraptor chileana)
Method: Spec-seq
Form: double-stranded DNA, one strand shown
Matrix: in vitro
Concentration: not given
Setting: whole probe, mean of replicates
Reference: not given
Reading: lower = stronger binding
Constant ends, left off below: GAGTCGTCTCGTCAGCAC … CCGTAGAGCACTCAGGTC
Construct (chain): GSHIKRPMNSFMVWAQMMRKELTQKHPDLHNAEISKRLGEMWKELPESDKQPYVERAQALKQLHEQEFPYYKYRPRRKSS
| Sequence | relative binding energy [ln ratio] |
| --- | --- |
| CTCCGTT | 0.723 |
| CATTAAC | -0.0112 |
| CATCAGC | 0.386 |
| CATTAGA | 0.153 |
| AATAGTT | -2.43 |
| CATAATT | -0.539 |
| CATGCTC | 0.596 |
| GCGTGTT | 0.623 |
| CATCCTG | 0.846 |
| TTTGGTT | 0.353 |
| TCTTGTT | -2.03 |
| CATCTCA | 0.316 |
| CATGGAT | 0.734 |
| CATCATA | 0.199 |
| CATCCGA | 0.706 |
| CTATGTT | -0.519 |
| CATCATT | 0.263 |
| TTTAGTT | 0.0418 |
| CATTGCG | 0.177 |
| GTATGTT | 0.256 |
| CATAAGG | -0.357 |

Set 2
Target: RING finger protein unkempt homolog, zinc fingers 1-6, GST-SBP tag (UNK, Homo sapiens, UniProt Q9C0B0, residues 30-357)
UniProt Q9C0B0, sequence (30-357, looked up): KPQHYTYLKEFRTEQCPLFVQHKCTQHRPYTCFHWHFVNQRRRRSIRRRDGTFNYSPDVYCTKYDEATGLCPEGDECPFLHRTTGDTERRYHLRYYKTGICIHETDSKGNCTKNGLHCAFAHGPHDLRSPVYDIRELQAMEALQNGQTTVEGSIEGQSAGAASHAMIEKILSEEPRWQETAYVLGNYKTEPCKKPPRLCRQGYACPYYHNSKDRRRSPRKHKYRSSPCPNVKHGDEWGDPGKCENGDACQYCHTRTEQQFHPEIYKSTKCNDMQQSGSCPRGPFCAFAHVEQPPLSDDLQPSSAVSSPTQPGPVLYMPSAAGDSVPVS
Method: RNA Bind-n-Seq
Form: RNA
Matrix: in vitro
Concentration: not given
Setting: RNA with constant flanks, ends assumed
Reference: input RNA pool
Reading: higher = stronger binding
Constant ends, left off below: GGGAGUUCUACAGUCCGACGAUC … CAACAGAGGAUUGAGCAUCA
| Sequence | bound/input enrichment [ratio] |
| --- | --- |
| CUGGUGUGCCAGGAAAGUACUAAAUUUAAGAAUGUCUGGACAACUCAUUCCAGGUCACCUACCGCCUAUGAGAGAGGAAGAAUAUAUUUUGACAAUUAUCGGCGCUGUGUCAGCAGUGUU | 0.427 |
| AAAGAGAAUGGAGAAGUAAAGAUUUUGCUGAAAAGUGGGAAGGAGAAACCAAAAACAAAUACCGAAGACUUACAAAUUAAAAAGGUAAAGAAGAAAAAGAAAAAGAAACACAAAGAGAAU | 0.625 |
| CCAGGCAGAGGAGAUAUGGAACAGAAUGACUCUGACAACCGUAGAAUAAUUCGCUAUCCAGACCGUCAUCAACUUUUUGUUGGUAACUUGCCACAUGAUAUUGAUGAAAAUGAGCUAAAG | 0.558 |
| UUAGCUUUGUUAAAUGUAGCAACUCAGGGAGUUCAUUUAUGGGACUUGCAAGACAGAGUUUCCGUAAGGAAAUAUCAAGGUGUUACCCAAGGGUUUUAUACAAUCCACUCGUGUUUUGGA | 0.311 |
| CAUAAUCACAAGUUUGAAAUAUCCUAUUUCUUAAAUAAAAAGGAGAACGUUAAUUACAUUCCGCAGACAUUUUUACAUUCAAAACUGGAUAUUGAAAUACGUGGAACAAUUGCUUUAAAU | 0.146 |
| AACUGUAUCUGUGAUAUUGAAAAUUGUUCCAACAUGGCACCCCUCUACAGUGACUCUUACUCCGUCUUCUGGGCCAUUUUCAACUUGGUGACCUUUGUGGUAAUGGUGGUUCUCUAUGCU | 0.552 |
| UUCAUCUUGAGGUGGCCAAUAUGGGGAUGUGGAAUUUUUAUACAAGUUAUAAGUGUUUGGCACCGUACUUUUGGUACAUUGUGGCUUCAAAAGGGCCAGUGUAAAACUGCUUCCAUGUCU | 0.121 |
| AAGAACUUCAAGGGUACUAUUGAAGAACUGGCUCCAAAUCAAUAUGUGAUUAGUGGUGAAGCCGCUAUUCUUAAUUCUACAACCAUUGAAAUCUCAGAGCUUCCCGUCAGAACAUGGACC | 0.345 |
| CAAGUUCCCUAUAAAUAUGAUUUAUAUGAAAAAACUUUGAAGUACAAUUCAGACUUACUCCGCAGCCGAAACUGUGUAAGAAAGAAAGGAGACGGGUGUGGUGGAUUUGGGGAACCACUU | 0.282 |
| AAGAAGAGAAGGAAGAUGAAAUCUCAUUAGAAGAUCUAAUUGAAAGAGAGCGUUCUGCCCCCGGUCCAAAUGUUACCAAAAUCACUCUAGAGUCUUUUCUCGCGUGGAAGAAGAGGAAAA | 0.994 |
| GCUUAUAAAAUCAAAUAUCCAGAGAACUUCUUUCUCUUAAGAGGAAACCAUGAGUGUGCCCGCAUCAAUCGCAUUUAUGGAUUCUAUGAUGAAUGCAAACGAAGAUUUAAUAUUAAAUUG | 0.251 |

Set 3
Target: Ras GTPase-activating protein-binding protein 1, C-terminal RGG region (G3BP1, Homo sapiens, UniProt Q13283)
UniProt Q13283, sequence (whole entry, looked up): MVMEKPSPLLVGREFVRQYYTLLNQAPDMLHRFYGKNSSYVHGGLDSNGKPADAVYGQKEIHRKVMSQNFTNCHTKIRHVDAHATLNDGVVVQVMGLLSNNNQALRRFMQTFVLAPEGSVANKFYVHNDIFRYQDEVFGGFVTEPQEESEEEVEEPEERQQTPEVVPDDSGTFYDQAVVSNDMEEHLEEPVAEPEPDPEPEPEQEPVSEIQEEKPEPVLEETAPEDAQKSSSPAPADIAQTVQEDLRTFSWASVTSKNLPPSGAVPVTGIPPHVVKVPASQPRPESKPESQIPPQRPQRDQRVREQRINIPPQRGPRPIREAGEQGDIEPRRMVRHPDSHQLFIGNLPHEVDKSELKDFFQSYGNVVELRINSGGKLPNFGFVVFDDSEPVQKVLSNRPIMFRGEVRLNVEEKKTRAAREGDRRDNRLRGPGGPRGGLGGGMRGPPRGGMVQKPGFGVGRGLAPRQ
Method: RNA Bind-n-Seq
Form: RNA
Matrix: in vitro
Concentration: 1 µM
Setting: whole 134-nt RNA, ends assumed
Added: 150 mM KCl
Reference: input library
Reading: higher = stronger binding
Constant ends, left off below: GGGAGUUCUACAGUCCGACGAUC … UGGAAUUCUCGGGUGUCAAGG
| Sequence | log2 enrichment |
| --- | --- |
| UCCGCACACCCGGCCUGUCACCCUGCUUUCCCUGCCUCUACUUGACUUGGAAUUGGCUGAAGACUACACAGGAAUGCAUCGUUCCCACUC | 0.668 |
| ACCAUGCAGGUGGGCAUCUUUGGGAAGUGGGGCAAGGGGGGGAUAGGGAGGGGGGUAACACUUUGGGUACAGGUGGUCCCAGGUCGUUUC | 1.99 |
| UCCUGUGCUACACAUCGUAUGUACCGAAUCGGGGAAAGGGGAAAAAGGGGAAAAAGGGGAAAGUAUUAUGUUACGCCGUUCGGAUCUGCA | 1.84 |
| GCAGGAAGAAAAAACAAAUGGAAAUGCUUCGGAUAGUGGCAGGGGUGGGGGUUGCUAAGGAAAGGGUGGGAUGGGAGUGGGUAAAGAGUU | 2.49 |
| UGUGCUACACAUCGUAUGUACCGAAUCGGGGAAAAAGGGGUUUUUUUGGGGAAAAAAAGGGGAAAGUAUUAUGUUACGCCGUUCGGAUCU | 0.312 |
| CCUGUGCUACACAUCGUAUGUACCGAAUCGGGGAAAAAAGGGAAAAAAGGAAAAAAGGGGAAAGUAUUAUGUUACGCCGUUCGGAUCUGC | -1.69 |
| ACCAUGCAGGUGGGCAUCUUUGGGAAGUGGGGCAAGGGGGGGAUAGGGAGGGGGGUAACACUUUGGCAACAGGUGGUCCCAGGUCGUUUC | 2.24 |
| CACAGACAACACGCACCCACACAGACACAGAGGGAACGGGUUGGGAUGGGGACAGGGUGCACAGCAGGGCGGGGUAGGACCCCAGCCCCU | 0.352 |
| UGGGAGGUGGAUUUUGUUUAUUUUUUUAGCUCAUUUCCAGGGGUGGGAAUUUUUUUUUAAUAUGUGUCAUGAACAAAGUUGUUUUUGAAA | 2.35 |
| UUGCUAAUCUAUAAAUUUUUUUUAUAUGAAAUAGCUCAUAGUCGGAAGCCGGCACCCUCAAAUGAGCCCGAAUAUCUAUGUAAAUGGAUG | -3.32 |
| CACAGACAACACGCACCCACACAGACACAGAGGGAAGGGGUUGGGAUGAGGACAGGGUGCACAGCAGGGCGGGGUAGGACCCCAGCCCCU | -0.188 |
| UGGAUUUUCAAGACACGAAUGCUCGGAGUCUGGCAGAAAGGAAGAGAGAAGAGGAGAAGCAGAAGCACUUGGAUAAAAUUUAUCAAGAAA | -1.85 |
| UCAAGUCCUGUGCUACACAUCGUAUGUACCGAAUCGGAGGAAAGGUUUUUUUGGAAAGUAUUAUGUUACGCCGUUCGGAUCUGCACUUCC | -1.43 |
| AGUCCUGUGCUACACAUCGUAUGUACCGAAUCGGGGUUUGGGGAGGGGUUUUUGGGGAAAGUAUUAUGUUACGCCGUUCGGAUCUGCACU | 1.65 |

Set 4
Target: Sal-like protein 4, full length isoform A (SALL4, Homo sapiens, UniProt Q9UJQ4, residues 1-1053)
UniProt Q9UJQ4, sequence (whole entry, looked up): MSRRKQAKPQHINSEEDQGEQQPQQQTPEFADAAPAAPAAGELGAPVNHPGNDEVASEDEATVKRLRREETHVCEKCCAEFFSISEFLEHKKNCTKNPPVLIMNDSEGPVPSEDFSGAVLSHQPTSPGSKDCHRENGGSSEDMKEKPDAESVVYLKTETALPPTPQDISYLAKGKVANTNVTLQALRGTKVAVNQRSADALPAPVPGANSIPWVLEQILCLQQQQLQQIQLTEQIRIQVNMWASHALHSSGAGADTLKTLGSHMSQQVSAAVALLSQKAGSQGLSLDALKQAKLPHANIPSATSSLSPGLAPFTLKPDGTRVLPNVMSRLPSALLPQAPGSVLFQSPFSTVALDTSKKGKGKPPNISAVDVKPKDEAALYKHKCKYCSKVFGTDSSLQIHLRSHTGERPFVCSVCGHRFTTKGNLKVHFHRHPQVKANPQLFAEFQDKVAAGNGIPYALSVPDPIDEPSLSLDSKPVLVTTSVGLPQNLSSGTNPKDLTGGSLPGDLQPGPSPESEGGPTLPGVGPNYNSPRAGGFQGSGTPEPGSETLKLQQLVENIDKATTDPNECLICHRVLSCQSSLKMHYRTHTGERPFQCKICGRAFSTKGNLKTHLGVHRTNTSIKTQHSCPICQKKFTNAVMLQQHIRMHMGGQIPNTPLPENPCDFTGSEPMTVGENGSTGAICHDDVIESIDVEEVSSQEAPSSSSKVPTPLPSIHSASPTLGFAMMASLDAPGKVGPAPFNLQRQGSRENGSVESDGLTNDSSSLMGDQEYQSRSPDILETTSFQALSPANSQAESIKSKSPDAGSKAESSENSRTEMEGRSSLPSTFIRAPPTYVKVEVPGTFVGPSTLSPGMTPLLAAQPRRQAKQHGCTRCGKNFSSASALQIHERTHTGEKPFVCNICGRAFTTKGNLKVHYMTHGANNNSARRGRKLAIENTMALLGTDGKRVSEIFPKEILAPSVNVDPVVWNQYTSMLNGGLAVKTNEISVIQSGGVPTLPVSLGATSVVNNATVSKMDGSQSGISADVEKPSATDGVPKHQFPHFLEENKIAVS
Method: universal PBM
Form: double-stranded DNA, one strand shown
Matrix: in vitro
Concentration: 600 nM
Setting: 8-mer, flanks averaged, mean of replicates
Reading: higher = stronger binding
| Sequence | E-score |
| --- | --- |
| GTTATAGA | 0.318 |
| ACTAGAGT | 0.0378 |
| AAAACTCG | 0.149 |
| AAGACCAA | 0.0588 |
| CCTCTGAG | -0.163 |
| AATACGCT | 0.175 |
| TCGAACGA | -0.0519 |
| CCCCCCGC | -0.364 |
| CGTGCACC | -0.285 |
| ACTCGAGC | -0.224 |
| ACCTCCAG | -0.0919 |
| GATACCAC | 0.0343 |
| CGCGATCC | -0.235 |
| AGCACCAT | -0.0978 |
| AGGCTTTG | -0.224 |
| AAATACAA | 0.4 |
| CGGACTAA | -0.109 |
| CTTCTCTA | 0.0329 |
| AAGGCCCT | -0.139 |
| ATTAGCGC | 0.115 |
| CTCACGAA | -0.0783 |
| CGAAACAG | -0.0886 |
| CAGGAGGC | -0.185 |
| ACTGAGCC | -0.275 |
| CGCATAGA | -0.0762 |
